# Assay results collected from several papers.
# Protocols differ between the studies behind these lines. “And” joins repeats or separate records; there may be more than shown. Numbers after ± are the reported error.
# UniProt Q64663, sequence (whole entry, unmodified, looked up): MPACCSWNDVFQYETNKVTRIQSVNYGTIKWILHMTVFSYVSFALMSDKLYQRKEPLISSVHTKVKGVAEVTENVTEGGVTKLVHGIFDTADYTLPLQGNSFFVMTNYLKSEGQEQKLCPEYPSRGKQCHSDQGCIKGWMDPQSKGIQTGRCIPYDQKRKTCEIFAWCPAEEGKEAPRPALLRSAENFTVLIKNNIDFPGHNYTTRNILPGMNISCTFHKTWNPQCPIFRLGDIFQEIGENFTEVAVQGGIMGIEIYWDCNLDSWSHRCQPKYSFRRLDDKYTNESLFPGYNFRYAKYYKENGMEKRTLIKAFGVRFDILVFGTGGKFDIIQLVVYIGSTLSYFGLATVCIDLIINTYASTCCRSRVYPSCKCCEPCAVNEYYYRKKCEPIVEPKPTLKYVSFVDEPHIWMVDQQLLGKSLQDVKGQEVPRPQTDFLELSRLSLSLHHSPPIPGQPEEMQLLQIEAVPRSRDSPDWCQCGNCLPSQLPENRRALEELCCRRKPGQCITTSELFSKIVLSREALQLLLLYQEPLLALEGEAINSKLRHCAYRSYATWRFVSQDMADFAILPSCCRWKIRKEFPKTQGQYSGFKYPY
# UniProt P0AE52, sequence (whole entry, looked up): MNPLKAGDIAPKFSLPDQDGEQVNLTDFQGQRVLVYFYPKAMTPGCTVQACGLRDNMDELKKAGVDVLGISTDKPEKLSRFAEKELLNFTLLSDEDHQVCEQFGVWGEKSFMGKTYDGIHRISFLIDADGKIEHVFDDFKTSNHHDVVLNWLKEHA
Molecule,target or system,assay,system,setting,scale,endpoint,value
QGRWDHETIV,human SCRIB PDZ3-4 tandem (MBP fusion),automated holdup,"peptide, crude extract","concentration not given, corrected by standard peak, unit not given","relative to: biotin control resin, higher = stronger binding",binding intensity,0.596
insulin degludec,,,human,"subcutaneous, 0.4 IU/kg, 2 FC level, single dose, reference formulation",,AUC0−∞,623 ± 65 ng·h/mL
YEQDPWGVKWWY,,,"peptide, mouse, CP model, serum","0.154 µmol/kg, 4 weeks",,serum AST,no effect
CAMK2A C6S/C289S (Homo sapiens),,"chemical modification, mass spectrometry, measured: Cys280",,"37 °C, apparent, reduced thiol",,pKa,7.7
"bcp (Escherichia coli, UniProt P0AE52)",,"UV-vis, measured: Cys45",,"reduced, folded, numbering of the source",,pKa,5.76
insulin icodec,,LOCI immunoassay,"human, renal impairment trial, urine",subcutaneous,relative to: dose,intact drug excreted in urine,< 1%
insulin aspart,,ELISA,"human, adults with type 1 diabetes, up to 35 years, serum","subcutaneous, 0.2 U/kg",,onset of appearance,5.9 min
BzATP,"P2X purinoceptor 7 (P2rx7, Rattus norvegicus, UniProt Q64663, Q143A/R125A)","ion current, agonist, two-electrode voltage clamp",Xenopus laevis oocytes,1.2 µM,relative to: highest concentration response,normalized current,0.00962 and 0.011 and 0.0187
Pegcetacoplan,,population PK model,human,,,"clearance, typical value",0.0117 L/h
insulin aspart,,"ELISA after PEG precipitation, measured: free insulin aspart","human, type 1 diabetes, serum","subcutaneous, dose not given, least squares mean",,AUC(2 h-t),0.262 nM·h
colistin,Pseudomonas aeruginosa,broth microdilution,clinical isolate RKI-No_221/16,,,MIC,1 µg/mL
azu C112D/M121H (Pseudomonas aeruginosa),,"UV-vis, measured: His121",,"inferred, Cu(II) form presumed, numbering of the source",,pKa,8
ACEQNPIYWARYADWLFTTPLLLLDLALLVDADEGT,,ex vivo fluorescence imaging,"peptide, BALB/c mice, 4T1 tumour-bearing, liver","intravenous, 5 nmol, 2 h post-injection",higher = more uptake,mean fluorescence intensity,1670 ± 149 a.u.
glucagon,,Congo red binding,10 mM PBS,"172.2 µM, 64 h, pH 2.5",,Congo red signal,1.71 µM
Peginesatide,UT7/EPO,"tyrosine phosphorylation, LC-MS/MS phosphoproteomics, GluC, measured: FCGR2A tyrosine 288",,"10 nM, 15 min, with: 10 U/mL EPO",relative to: vehicle,phosphorylation level,9.3 fold
ACEEQNPWARYLEWLFPTETLLLEL,,ex vivo fluorescence imaging,"peptide, BALB/c mice, 4T1 tumour-bearing, muscle","intravenous, 5 nmol, 4 h post-injection",higher = more uptake,mean fluorescence intensity,757 ± 34.9 a.u.
IGF-1,,IVIS imaging,"mouse, non-injured, brain","intravenous, tail vein, 1 µmol/kg, Cy5.5-conjugated",,time to peak brain accumulation,24 h
GSGAGIATEV,human MAGI1-3/6 PDZ construct (MBP fusion),surface plasmon resonance,peptide,concentration not given,higher = stronger binding,normalised SPR binding response,5.5 normalised RU
"FGA (Homo sapiens, UniProt P02671)","ULK4 (Homo sapiens, UniProt Q96C45)",cross-linking MS,,with: DSSO,,cross-linked residues,K620 to K176
insulin icodec,,immunoassay,"Japanese patients with type 1 diabetes, serum","dose not given, 168 h after last dose, geometric mean total serum",,dose-normalised AUCτ at steady state,10800 (nmol·h/L)/(U/kg)
Neuropeptide Y,,RP-HPLC,HALO Peptide ES-C18 column,"25 µM, formic acid/methanol, 10 min gradient",,retention time,9.85 min
caspofungin,,,"adult ICU patients, mITT, serum","dose not given, day 4",,potassium,4 mmol/L
human insulin,,population PK model,healthy human,"subcutaneous, 15 IU, euglycaemic glucose clamp",,absorption rate constant 2,0.86 h⁻¹
oxyntomodulin,,LC-MS/MS,human serum,,relative to: human plasma,recovery,decreased
pegcetacoplan,,measured: general and administration site disorders,patients with PNH,"dose not given, phase Ib trial",,number of TEAEs,263
human insulin,,ELISA,"pig, anaesthetized, serum","subcutaneous, 20 IU, -20 to +420 min",,AUC,1.35 ± 0.167 nM·h
Ubiquitin fragment (Homo sapiens),,"NMR, measured: Lys33",,,,pKa,10.9
11-deoxycorticosterone,CYP11B2 (human),"substrate binding, stopped-flow global kinetic fitting",purified enzyme,"3-state conformational selection model, with: no adrenodoxin",,rate constant k-1,1.23 ± 0.123 s⁻¹
insulin icodec,,,"Chinese type 2 diabetes patients, serum","subcutaneous, once-weekly median",,Tmax at steady state,18 h
ACDDQNPWRAYLDLLFPTDTLLLDLLW,,ex vivo fluorescence imaging,"peptide, BALB/c mice, 4T1 tumour-bearing, liver","intravenous, 5 nmol, 2 h post-injection",higher = more uptake,mean fluorescence intensity,1670 ± 410 a.u.
adrenomedullin,,RP-HPLC,HALO C18 column,"25 µM, formic acid/methanol, 25 min gradient",,retention time,14.6 min

# Repeated from above:
Molecule,target or system,assay,system,setting,scale,endpoint,value
insulin aspart,,ELISA,"human, adults with type 1 diabetes, up to 35 years, serum","subcutaneous, 0.2 U/kg",,onset of appearance,5.9 min
human insulin,,population PK model,healthy human,"subcutaneous, 15 IU, euglycaemic glucose clamp",,absorption rate constant 2,0.86 h⁻¹
11-deoxycorticosterone,CYP11B2 (human),"substrate binding, stopped-flow global kinetic fitting",purified enzyme,"3-state conformational selection model, with: no adrenodoxin",,rate constant k-1,1.23 ± 0.123 s⁻¹
